Measured values from different studies.
Lines come from different studies, so protocols differ. ± marks the error that the study gave. Values after ≈ are worked out from the molar mass of the structure shown.

Compound	organism	test	system	conditions	scale	measurement	value
C[C@H]1CCC/C=C/[C@@H]2C[C@H](O)C[C@H]2[C@H](O)/C=C/C(=O)O1	Toxoplasma gondii	parasite growth	HFF, bradyzoite, glutamine-induced	–	–	EC50	168 nM
C/C(=C\c1csc(C)n1)[C@@H]1C[C@@H]2O[C@]2(C)CCC[C@H](C)[C@H](O)[C@@H](C)C(=O)C(C)(C)[C@@H](O)CC(=O)O1	human coronavirus OC43	virus-induced cell killing	MRC-5	maximum over 10 doses	–	maximum inhibition	0%
Fc1ccc(C(OCCN2CCN(CCCc3ccccc3)CC2)c2ccc(F)cc2)cc1	Toxoplasma gondii	parasite growth, luciferase reporter	HFF, tachyzoite	72 h	–	EC90	44900 nM
O=[N+]([O-])c1cc2c(ccc3cc(Br)ccc32)o1	Mycobacteroides abscessus	REMA	ATCC 19977	–	–	MIC90	> 32 µg/mL
COc1cc2c(cc1O)CC[C@@H]1[C@@H]2CC[C@]2(C)[C@@H](O)CC[C@@H]12	human coronavirus OC43	virus-induced cell killing	MRC-5	maximum over 10 doses	–	maximum inhibition	0%
Nc1ncnc2c1ncn2[C@@H]1O[C@@H]2COP(=O)(O)O[C@H]3[C@@H](O)[C@H](n4cnc5c(=O)[nH]cnc54)O[C@@H]3COP(=O)(O)O[C@H]2[C@H]1O	West Nile virus	RNA sequencing, item: effectors, RHO GTPase, R-HSA-195258	HFF-1 cells	concentration not given, upregulated pathway	reference: WNV-infected untreated cells	fold enrichment	2.56
COC(=O)[C@@H]1[C@@H](c2ccccc2)[C@]2(c3ccc(OC)cc3)Oc3cc(OC)cc(OC)c3[C@@]23N=C(C)N[C@@]13O	Hepatitis E virus	viral replication	HepG2 HEV-3 replicon, genotype 3	48 h, racemate	–	EC50	~1.5 nM
Cc1c2c(nn1C)CSCc1cc(n(C)n1)CSc1cc(c3ccccc3c1)OCCCc1c(C(=O)O)n(C)c3c-2c(Cl)ccc13	Staphylococcus aureus	label-free quantitative proteomics, item: SAOUHSC_01832 protein	SA113	concentration not given	reference: untreated control	log2 fold change	7.09
OC[C@H]1O[C@@H](n2ccc3c(SCc4ccc(Cl)cc4Cl)ncnc32)[C@H](O)[C@@H]1O	Toxoplasma gondii	intracellular parasite growth, [3H]uracil incorporation	human foreskin fibroblasts, RH wild type	–	–	IC50	11300 ± 900 nM
CCn1c(=O)c(-c2ccc(Cl)cc2Cl)cc2cnc(Nc3ccc(N4CCNCC4)c(F)c3)nc21	mouse hepatitis virus	viral replication	nanoluciferase reporter	1 µM	–	inhibition	47%
C[C@@H](Oc1cc(-c2cnn(C3CCNCC3)c2)cnc1N)c1c(Cl)ccc(F)c1Cl	human coronavirus OC43	virus-induced cell killing	MRC-5	maximum over 10 doses	–	maximum inhibition	0%
OC[C@H]1O[C@@H](n2ccc3c(O)ncnc32)[C@H](O)[C@@H]1O	Toxoplasma gondii	[3H]uracil incorporation	human fibroblasts, adenosine kinase-deficient	10 µM	–	parasite survival	100%
COC(=O)N[C@H](C(=O)N1CCC[C@H]1c1ncc(-c2ccc(-c3ccc(-c4cnc([C@@H]5CCCN5C(=O)[C@@H](NC(=O)OC)C(C)C)[nH]4)cc3)cc2)[nH]1)C(C)C	Hepatitis C virus	–	replicon cells	90% effect level, added: NS5B inhibitor, ratio 1:1	–	combination index	0.96
CNC[C@H](O)[C@@H](O)[C@H](O)[C@H](O)CO.[O]=[Sb](=[O])[OH]	Leishmania major	–	BALB/c mouse	topical, dose not given, 21 days, unit not given	reference: PBS	lesion size difference	8.4
COc1ccc2c(ccc3oc([N+](=O)[O-])c(C)c32)c1	Mycobacteroides abscessus	REMA	ATCC 19977	–	–	MIC90	> 32 µg/mL
Cn1c(=O)ccc2ccc(F)c(CCNC[C@H]3CN(c4cnc5c(n4)NC(=O)CO5)C(=O)O3)c21	Stenotrophomonas maltophilia	–	–	–	–	MIC50	0.06 µg/mL (≈ 0.128 µM)
COc1cc(O)c(CC=C(C)C)c(O)c1C(=O)/C=C/c1ccc(O)cc1	human coronavirus OC43	virus-induced cell killing	MRC-5	screen	–	maximum inhibition	15.9%
O=C1Nc2ccc(I)cc2/C1=C/c1cc(Br)c(O)c(Br)c1	mouse hepatitis virus	viral replication	nanoluciferase reporter	1 µM	–	inhibition	35%

Compound	organism	test	system	conditions	scale	measurement	value
CC(=O)O[C@]1(C(C)=O)CC[C@H]2[C@@H]3C[C@H](C)C4=CC(=O)CC[C@]4(C)[C@H]3CC[C@@]21C	human coronavirus OC43	virus-induced cell killing	MRC-5	screen	–	maximum inhibition	1.57%
CN1CC(O)=C(C(=O)NC(C(=O)NC2C(=O)N3C2SC(C)(C)C3C(=O)O)c2ccccc2)C1=O (stereo not drawn)	Escherichia coli	–	ΔtolC JW5503-1	200 µM, added: 30 µg/mL 2,2'-bipyridyl	–	zone of inhibition	15.3 mm
CCC[C@@H]1C[C@@H](C(=O)N[C@@H]([C@H]2O[C@H](SC)[C@H](O)[C@@H](O)[C@H]2O)[C@H](C)Cl)N(C)C1	Streptococcus pyogenes	–	–	–	–	MIC90	0.125 µg/mL (≈ 0.294 µM)
CC[C@H](C)[C@H](NC(=O)[C@H](C)NC(=O)[C@H](CCCCN)NC(=O)[C@H](CC(C)C)NC(=O)[C@H](C)NC(=O)[C@@H](NC(=O)[C@H](Cc1c[nH]cn1)NC(=O)[C@H](CC(C)C)NC(=O)[C@@H](NC(=O)[C@@H](NC(=O)[C@H](CCCCN)NC(=O)[C@H](C)NC(=O)[C@H](C)NC(=O)[C@H](CO)NC(=O)[C@H](CCCCN)NC(=O)[C@H](Cc1ccccc1)NC(=O)[C@@H](NC(=O)[C@H](CCCCN)NC(=O)[C@H](CC(C)C)NC(=O)[C@H](Cc1ccccc1)NC(=O)[C@H](CO)NC(=O)[C@H](CCCCN)NC(=O)[C@H](Cc1c[nH]c2ccccc12)NC(=O)[C@H](CCCCN)NC(C)=O)[C@@H](C)O)[C@@H](C)O)C(C)C)[C@@H](C)O)C(=O)N[C@@H](CO)C(=O)N[C@@H](CO)C(N)=O	Klebsiella pneumoniae	–	ATCC 1705	–	–	MBC50	16 µg/mL (≈ 5.45 µM)
O=C(O)c1ccc2c(c1)nc(Nc1cccc(Cl)c1)c1ccncc12	human coronavirus OC43	virus-induced cell killing	MRC-5	screen	–	maximum inhibition	8.72%
CCCCc1ccc(CNc2nc(N(C)C)nc(N(C)C)c2/N=N/c2ccc(Cl)cc2)cc1	Ostrinia furnacalis	leaf dipping	–	500 mg/L, 96 h	–	mortality	100%
C[C@@H]1C[C@@H]([C@H](O)CC2CC(=O)NC(=O)C2)C(=O)[C@@H](C)C1	Mus musculus	gene silencing, high-content imaging	LDR reporter GFP cells	retest run 2	–	AC50	5010 nM
C[C@@H]1C[C@@H]([C@H](O)CC2CC(=O)NC(=O)C2)C(=O)[C@@H](C)C1	Fusarium solani	–	–	concentration not given	–	inhibition zone diameter	12 ± 0.54 mm
N#Cc1ccc(C(c2ccc(C#N)cc2)n2cncn2)cc1	human coronavirus OC43	virus-induced cell killing	MRC-5	maximum over 10 doses	–	maximum inhibition	0%
O=[N+]([O-])c1cc2c(ccc3c4cc([N+](=O)[O-])oc4ccc23)o1	Mycobacteroides abscessus	REMA	ATCC 19977	–	–	MIC90	> 32 µg/mL
C[C@H]1c2cccc(O)c2C(=O)C2=C(O)[C@]3(O)C(=O)C(C(N)=O)=C(O)[C@@H](N(C)C)[C@@H]3[C@@H](O)[C@@H]21	Streptococcus pyogenes	–	–	–	–	MIC90	8 µg/mL (≈ 18 µM)
N#Cc1ccc2c(ccc3oc([N+](=O)[O-])cc32)c1	Salmonella enterica	REMA	–	–	–	MIC90	< 0.25 µg/mL
CN([C@@H](Cc1ccc(OS(=O)(=O)c2cccc3cnccc23)cc1)C(=O)N1CCN(c2ccccc2)CC1)S(=O)(=O)c1cccc2cnccc12	mouse hepatitis virus	viral replication	nanoluciferase reporter	1 µM	–	inhibition	28%
OC[C@H]1O[C@@H](n2ccc3c(SCc4ccc(F)cc4F)ncnc32)[C@H](O)[C@@H]1O	Toxoplasma gondii	intracellular parasite growth, [3H]uracil incorporation	human foreskin fibroblasts, RH wild type	–	–	IC50	8300 ± 100 nM
CCOc1cc(N2CCC(O)CC2)ccc1Nc1ncc2c(n1)N(C)c1ccccc1C(=O)N2C	mouse hepatitis virus	viral replication	nanoluciferase reporter	1 µM	–	inhibition	9%
CCCCCC[C@H]1C(=O)O[C@H](C)[C@H](NC(=O)c2cccc(NC=O)c2O)C(=O)O[C@@H](C)[C@@H]1OC(=O)CC(C)C	Equid alphaherpesvirus 1	viral replication	RK-13	–	–	IC50	37 nM
Cc1ccc2nc(NC(=O)CSc3nc4c(c(=O)n3-c3ccccc3)SCC4)sc2c1	human coronavirus OC43	virus-induced cell killing	MRC-5	screen	–	maximum inhibition	5.6%
c1ccc2c(c1)[I+]c1ccccc1-2	Toxoplasma gondii	–	–	alkaline-induced bradyzoites	–	EC90	460 nM

A few entries again:
Compound	organism	test	system	conditions	scale	measurement	value
N#Cc1ccc2c(ccc3oc([N+](=O)[O-])cc32)c1	Salmonella enterica	REMA	–	–	–	MIC90	< 0.25 µg/mL
CN([C@@H](Cc1ccc(OS(=O)(=O)c2cccc3cnccc23)cc1)C(=O)N1CCN(c2ccccc2)CC1)S(=O)(=O)c1cccc2cnccc12	mouse hepatitis virus	viral replication	nanoluciferase reporter	1 µM	–	inhibition	28%
OC[C@H]1O[C@@H](n2ccc3c(SCc4ccc(F)cc4F)ncnc32)[C@H](O)[C@@H]1O	Toxoplasma gondii	intracellular parasite growth, [3H]uracil incorporation	human foreskin fibroblasts, RH wild type	–	–	IC50	8300 ± 100 nM
CCOc1cc(N2CCC(O)CC2)ccc1Nc1ncc2c(n1)N(C)c1ccccc1C(=O)N2C	mouse hepatitis virus	viral replication	nanoluciferase reporter	1 µM	–	inhibition	9%
CCCCCC[C@H]1C(=O)O[C@H](C)[C@H](NC(=O)c2cccc(NC=O)c2O)C(=O)O[C@@H](C)[C@@H]1OC(=O)CC(C)C	Equid alphaherpesvirus 1	viral replication	RK-13	–	–	IC50	37 nM
